Experimental data of several laboratories.
Numbered parts are unrelated; each lists some results of a single study.

Set 1
Target: RING finger protein unkempt homolog, zinc fingers 1-6, SBP tag (UNK, Homo sapiens, UniProt Q9C0B0, residues 30-357)
Sequence of UniProt Q9C0B0 (30-357, looked up): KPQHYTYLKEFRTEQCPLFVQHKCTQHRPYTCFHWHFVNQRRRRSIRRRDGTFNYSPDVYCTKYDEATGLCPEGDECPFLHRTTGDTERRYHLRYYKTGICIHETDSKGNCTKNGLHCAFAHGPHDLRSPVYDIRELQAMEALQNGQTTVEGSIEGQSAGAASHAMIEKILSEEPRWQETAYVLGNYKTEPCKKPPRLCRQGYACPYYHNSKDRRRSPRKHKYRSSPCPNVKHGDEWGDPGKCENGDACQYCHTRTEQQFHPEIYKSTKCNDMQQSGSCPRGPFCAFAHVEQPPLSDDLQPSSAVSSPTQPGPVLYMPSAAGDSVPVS
Technique: RNA Bind-n-Seq
Form: RNA
Medium: in vitro
Tested at: 100 nM
Setting: RNA with constant flanks, vertebrate orthologous sites, ends assumed
Baseline: input RNA pool
Reading: higher = stronger binding
Endpoint: bound/input enrichment
Constant ends, left off below: GGGAGUUCUACAGUCCGACGAUC … CAACAGAGGAUUGAGCAUCA
UUACAGUCAUUGAUGGACUCUAUUUUUUUAUUAUUACUUGGACCUUGGUCGUUUUUAUACUAGCAAAAUGUCUUGUUUUAAUUUGUGUUUUUUUUUGGGGGGGGGAGGGAGUGAACUUGC: 2.94 ratio
ACCAAGUAAUUUUUUUCAACAUUAAUUGAAAAGUGUUGUGUGAAACAUGUCUAGUCAAGAAGUAACAGAAAUAUAUGUGAGCAUUUAAAGUAAAUUUGAGAUGAAGAGUGAAGUAUAUUU: 0.524 ratio
UCCUCAACUUCUUCUAGCUUGUGGUCCUUCAAAGCUGGGGUGGACAUUAGUGCUAGAUACUAGAAAUCUUCAUUUCCCUGUUGCCAGUGAUCAGAGAGACAGGCAUUAAAACAGGAAUAU: 0.849 ratio
AGGAAAUGCUGGCUGCAAACCCUCAGGAUCGUCCAGAUGCUUUUGAACUAGAACUCCGAUUAGUACAAAUUGCAUUUAAAGAUAGCAGCUGGGAAACGUGACACAUACUAUUUACAAAUA: 2.73 ratio
CAUCUCUUGUUUUAUAUGUCCAAAAAUGGCUUUGAAUUUUAAGCAAUUACUAGUUUUAAUUAGCUCUGCCCUCAUGAAGUAUUAUUAUAAUUCACCAUAAACAGCUAUCUGUCUGAAUUA: 1.28 ratio
CAGCUGAUUCACUCAUUGGGAGAGCUGCACAUAUAGCUGUUCUUGAUUCGGAAAUCUUUUUAGAGAAAUUCUUUCUGGUUGCUGCCCUCAAAUAUUUCCAAUAGUAUAAAAGCAUUGUUA: 1.12 ratio
AGGGACGCUUUGAUGUAAAAAUUGAAAUUAAGAGCUGAUCACAAGCACAAAUCUUUCCCACUAGCCAUUUAAUAAGUUAAAAAAGAUACAAAAACAAAAACCUACUAGUCUUGAACAAAC: 2.94 ratio
GCCUCCUCCCCACUGUGAGAGGAAGUGGGUAAAGGCCUAUGACCCUCAACUGUUCAAUCCAGUAUUUUUUUUUUCCUUUUUUAAAGUUACUGUAUUUAUUAUGACGAUGGUGACUCCCCG: 0.479 ratio
CAGGGUGGGACCCGGGACCUACUGCUCAGUGGCCCGCUGGCCACGUCAGCUAAGCCACUUUAGGUCCAUUUUUUAUUUUAACAGUGCUCUUCCAUUCUGUGCGUAAGCCCGAGAUUUGGA: 0.833 ratio
AGAACCUAAAAAUAUAGCAAAAGAGCCAAGCAGUGGCUUUUUUUUAUAAAUGUAAAAAUUAGAUCCAGCCUUUUGUUUCCGUAUUCAGUUUUAAAAAUAAAAAAUACCUCAGUGCUAUGA: 1.09 ratio
UCCUCUGAACCCCAUUUCUUCUGUUUCAUAGUGCAGAAAUAUUCUUUUCAACUAUAUUUUUACUGGACUUGUUUUGAUUUUAAUAGAAUUUCCAGUACAGAUGCUGUGAGCUGACAUGGA: 0.618 ratio

Set 2
Target: RNA binding protein fox-1 homolog 2, RRM domain, GST-SBP tag (RBFOX2, Homo sapiens, UniProt O43251-10, residues 100-194)
Technique: RNA Bind-n-Seq
Form: RNA
Medium: in vitro
Tested at: 365 nM
Setting: natural RNA segment, single round, ends assumed
Baseline: no-protein control
Reading: higher = stronger binding
Endpoint: RBNS enrichment (R)
Constant ends, left off below: GGGAGUUCUACAGUCCGACGAUC … UGGAAUUCUCGGGUGCCAA
Construct (chain): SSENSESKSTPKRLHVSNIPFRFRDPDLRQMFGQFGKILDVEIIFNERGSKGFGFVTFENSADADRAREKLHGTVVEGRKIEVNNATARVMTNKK
CUGUUCCUCCAGAAUUUGAGUCCUGUUAAUGUAGUGGCAAAGAAGAAAGUUUCUUUUUCUUUUGUGUUAGUCUUGCAAGUUUGUCUACCAGUAAAAGAGCAAAGUUUCCU: 17.1
AUUGCAUAUCUUUGCUAUUCAACAAUGGUGUCCUUCACCACAGUUUCUAAUCUAGAGCACGGAGAACUGGUCUGUCACUUUUAAAAUUAGAUGCCUUUGAUCAGAGUUUG: 0.73
CGAAUUCAUUUUGUAAAUAAUGUUCAACGUUAAGAAUACCUAUAUUCCUUUUGUAGAUGAGUAUGAUUUUGAAACUGAAGAAAUUAAUACAGAGGCAAGAUUUUAGGAGU: 0.31
UUGGAAGGAGGUGCCUAUAGAAAACGAUUUUGAACAUACUUCAUCGCAGUGGACUGUGUCCCUCGGUGCAGAAACUACCAGAUUUGAGGGACGAGGUCAAGGAGAUAUGA: 0.953
GGCAACCCCAGCCCACUGGACAGAGUCCUCAUGGAAAUGCCUGGGAAGCUGAUUUCAUCUAAGGAUGGGUUGAAGUAGGAUGUGCUCCUGCGACUUCUCAGGCAGGUGAG: 0.258
GAAUGUCCCUUCCAUUUCUGAGAACAAGUCAGCCCCUUCUACCUGCCUCCACCCAGGAGACUGAUGCACAAGAUCUGUUUGUGAAAGCCUGAUUUAAAAAGAAAAAAAAA: 0.339
CCUGGGUGCUGGAGAGGAAGGAAACAGUUAAAGGGUAGUUACUUGGUAUCCACCUUCAUGAUUUUAACUGACCCAUAACAAUGUUGUCAGCAGUAUAGGACUGUUGAACA: 0.496
CUUUAAUGGGAGAGUAAGAAAUGAGAAACAUAGAAAUCUAAGGCUGAAGCCAACACCAAAAGAGGGAGCACACCUGUUCCCUACCUCCUGGAAGUGGAGCCAAGUUUCAG: 0.248
UCUGGAAAGAGGCCUCCCUCCCUCCCUUUGUGGAGCCGUCAGUCAUCCCCAAGAUGAGAGGCGAGCAUCCUGCCGAGUGAGCCUGCAGCAACAGCUCCUGAGGAAGGUGC: 0.498
UCGUAAUGUUGGAGAUCAGGAAUAUUGGUUGUGAUGACAAGAAAGAGCCCACUUACUCCUCCUCGUUCUAGGACACGGUCAUCUUUCCUUAGGAAAUUAAAAUGCUUCAU: 0.726
GAGCCUGGAGCAGAAAUGGCAGCCCCAUCCUUCCUCCAGCCACUACCCCAAGCUACAGUGGGGGCCCAUGGCCCCAGCUUGCUAGGUCACCCUCCACCCCUCCUCCAGCG: 0.363
ACAUCAUUGUGAGUUAGAUCAGUAUUAUGACCGCUGUCUUAGGGAAGGCCUGGGAACAGGAGUGUGCAGGCUGUCCUGAAGAGAGGCUGAGGACAGUGUGAAUAAUUGUA: 1.53

Set 3
Target: Ras GTPase-activating protein-binding protein 1, C-terminal RGG region (G3BP1, Homo sapiens, UniProt Q13283)
Sequence of UniProt Q13283 (whole entry, looked up): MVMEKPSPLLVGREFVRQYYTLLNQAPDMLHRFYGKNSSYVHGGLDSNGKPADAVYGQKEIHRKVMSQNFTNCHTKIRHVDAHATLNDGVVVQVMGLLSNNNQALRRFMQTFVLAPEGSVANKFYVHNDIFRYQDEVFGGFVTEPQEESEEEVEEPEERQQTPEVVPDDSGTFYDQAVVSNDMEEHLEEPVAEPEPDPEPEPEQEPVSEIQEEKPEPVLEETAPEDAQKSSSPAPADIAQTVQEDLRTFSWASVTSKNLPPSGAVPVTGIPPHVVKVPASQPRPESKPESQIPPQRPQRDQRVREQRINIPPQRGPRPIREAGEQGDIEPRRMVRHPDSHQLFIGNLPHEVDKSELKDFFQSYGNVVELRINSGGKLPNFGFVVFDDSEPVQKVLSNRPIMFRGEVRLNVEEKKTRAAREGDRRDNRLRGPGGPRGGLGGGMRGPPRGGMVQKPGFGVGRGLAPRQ
Technique: RNA Bind-n-Seq
Form: RNA
Medium: in vitro
Tested at: 1 µM
Setting: whole 134-nt RNA, ends assumed
Added: 150 mM KCl
Baseline: input library
Reading: higher = stronger binding
Endpoint: log2 enrichment
Constant ends, left off below: GGGAGUUCUACAGUCCGACGAUC … UGGAAUUCUCGGGUGUCAAGG
CUGUGCUACACAUCGUAUGUACCGAAUCGGGCCCCCCCGGGGCCCCCCCGGGGCCCCCCCGGAAAGUAUUAUGUUACGCCGUUCGGAUCU: -1.93
GACAGACAACACGCACCCACACAGACACAGAGGGAAGGGGUUGGGAUGGGGACAGGGUGCACAGCAGGGCGGGGUAGGACCCCAGCCCCU: -0.224
UGGGAGGUGGAUUUUGUUUAUUUUUUUAGCUCAUUUCCAGGGGUGGGAAUUUUUUUUUAAUAUGUGUCAUGAAUAAAGUUGUUUUCGAAA: 2.88
CUGUGCUACACAUCGUAUGUACCGAAUCGGGGCCCCCCCGGGGCCCCCCCGGCCCCCCCGGAAAGUAUUAUGUUACGCCGUUCGGAUCUG: -1.67
UGUGCUACACAUCGUAUGUACCGAAUCGGGGUUUUUUUGGGGUUUUUUUGGUUUUUUUGGGGAAAGUAUUAUGUUACGCCGUUCGGAUCU: -1.06
UAACUUUAGAGGAGGAUCUGAUGGAUAUGGCAGUGGACGUGGAUUUGGGGAUGGCUAUAAUGGGUAUGGAGGAGGACCUGGAGGUGACAA: -0.601
UGGGAGGUGGAUUUUGUUUAUUUUUUUAGCUCAUUUCCAGGGGUGGGAAUUUUUUUUUAAUAUGUGUCAUGAAUAAAGUUGUAUUUGAAA: 3.96
CCUCAAGUCCUGUGCUACACAUCGUAUGUACCGAAUCGGGUGGGGUGGGGUGGAAAGUAUUAUGUUACGCCGUUCGGAUCUGCACUUCCA: 0.918
CUCAAGUCCUGUGCUACACAUCGUAUGUACCGAAUCGGAAGGGGAAGGAAGGGAAAGUAUUAUGUUACGCCGUUCGGAUCUGCACUUCCA: -1.06
CCUGUGCUACACAUCGUAUGUACCGAAUCGGCCCCCCCGGCCCCCCCGGGGCCCCCCCGGGAAAGUAUUAUGUUACGCCGUUCGGAUCUG: -1.22
UAACUUUAGAGGAGGAUCUGAUGGAUAUGGUAGUGGACGUGGAUUUGGGGAUGGCUAUAAUGGGUAUGGAGGAGGACCUGGAGGUGGCAA: -1.32
AAGUCCUGUGCUACACAUCGUAUGUACCGAAUCGGGUGGGUUUGGGUUUUUUUGGGAAAGUAUUAUGUUACGCCGUUCGGAUCUGCACUU: 0.587
CACAGACAACACGCACCCACACAGACACAGAGGGAAGGGGUUGGGAUGGGGAAAAGGUGCACAGCAGGGCGGGGUAGGACCCCAGCCCCU: -0.273
CCUCAAGUCCUGUGCUACACAUCGUAUGUACCGAAUCGGGAAGGGAAGGAAGGAAAGUAUUAUGUUACGCCGUUCGGAUCUGCACUUCCA: -1.61

Set 4
Target: Histone acetyltransferase KAT6A, both winged helices, GST fusion (KAT6A, Homo sapiens, UniProt Q92794, residues 1-181)
Technique: protein binding microarray
Form: double-stranded DNA, one strand shown
Medium: in vitro
Tested at: not given
Setting: 8-mer, flanks averaged, mean of 2 arrays, mostly near background
Baseline: not given
Reading: higher = stronger binding
Endpoint: E-score
Target sequence (chain): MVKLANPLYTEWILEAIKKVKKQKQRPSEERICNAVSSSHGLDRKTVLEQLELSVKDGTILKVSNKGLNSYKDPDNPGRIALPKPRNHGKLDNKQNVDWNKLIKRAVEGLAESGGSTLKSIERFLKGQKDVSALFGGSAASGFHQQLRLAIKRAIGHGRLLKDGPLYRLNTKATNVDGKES
CCTTGTCA: -0.031
ACCAACCC: -0.133
CCGTCAAG: 0.239
ACAACACG: 0.0819
AATCCAAG: -0.141
ATAGTCTC: -0.00983
ATTGTCAC: -0.0238
CCTAGTCG: 0.0457
CCCGACGG: 0.367
ACACACAA: -0.00427
AGGTAAGG: -0.313
CTTTTCAA: -0.0951
GAGTGTGA: -0.21
CATACATG: -0.0532
AAACTCAG: -0.168
GCTTTTCC: 0.0835
ATTATGTG: 0.0408
AAGTAAGT: -0.157
TAGCGACA: 0.0532
ATATCACG: -0.0991
CAAGGCGG: 0.136
GGATCAGA: -0.174
GGAGCACA: -0.13
ATGCGCCC: 0.253
CTCTTCCC: -0.06

Repeated from above (set 4):
CTCTTCCC: -0.06
CCCGACGG: 0.367
GCTTTTCC: 0.0835
ATTGTCAC: -0.0238
AATCCAAG: -0.141
CCTTGTCA: -0.031
TAGCGACA: 0.0532
GAGTGTGA: -0.21
AAGTAAGT: -0.157
ATTATGTG: 0.0408
